Assay results from different studies.
Parts stem from different laboratories: compare values within a part only. Positions count from the first letter of the parent shown.

Set 1
Target: Centromere-binding protein 1, full length, N-terminal tag (CBF1, Saccharomyces cerevisiae, UniProt P17106, residues 1-351)
Sequence of UniProt P17106 (whole entry, looked up): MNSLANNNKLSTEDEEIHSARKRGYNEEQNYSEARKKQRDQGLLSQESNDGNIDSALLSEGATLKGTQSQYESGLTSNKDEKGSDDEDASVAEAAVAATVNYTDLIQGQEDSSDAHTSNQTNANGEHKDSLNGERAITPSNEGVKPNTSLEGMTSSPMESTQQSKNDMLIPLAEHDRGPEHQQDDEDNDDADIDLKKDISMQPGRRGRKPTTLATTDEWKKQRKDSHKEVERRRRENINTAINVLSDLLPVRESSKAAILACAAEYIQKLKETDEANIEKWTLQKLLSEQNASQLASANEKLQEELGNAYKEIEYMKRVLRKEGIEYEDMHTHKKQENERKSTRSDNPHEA
Method: protein-binding microarray
Form: double-stranded DNA, one strand shown
Matrix: in vitro
Concentration: 0.8 µM
Setting: whole 60-bp probe, no competitor
Reading: higher = stronger binding
All sequences stand within: … GTCTTGATTCGCTTGACGCTGCTG
`CTACAGAAAATTTCAGGTGAGATAAGGTGCGGCTTC` has a fluorescence intensity of 491 a.u.
`CTAGTGCGTTATGCTTCCATGTGACCCAACATCTTC` has a fluorescence intensity of 3470 a.u.
`GAAACTCCGTTCCATGGTGTGACTTTTTTAAGGTAG` gave a fluorescence intensity of 651 a.u.
With `CTACCAACCATATTACAAGTCACAAATTGGCAATTC` the fluorescence intensity was 564 a.u.
For `GAATATGTAAACTCTGATGTAGGATCGCACTTTTAG`, the fluorescence intensity was 549 a.u.
With `TGTACGAAGCTATCTCTCGTCAGTATAGTAGTTAGG` the fluorescence intensity was 531 a.u.
With `GAAGGCTCTTTTCATGATGTGCCACATGAGTACTAG` the fluorescence intensity was 579 a.u.
The fluorescence intensity of `GAAGCGGAGTTATCACACGTAATGGTACTGAGTTAG` is reported as 529 a.u.
`CTAGCCACATTTCATCACCTTTAAGTTAAGTACTTC` gave a fluorescence intensity of 485 a.u.
`GAAACGCAAAGCAATCTATTTCTTCTTTTGGCCTAG` gave a fluorescence intensity of 488 a.u.
The fluorescence intensity of `GAACACAAAAAATGTCACCCATCATTATATGTATAG` is reported as 547 a.u.
`CTATACAAGCTTTGGCACATGTTCGTGATACCTTTC` gave a fluorescence intensity of 944 a.u.
With `GAACAAATTTATAGTCAGCTGAAATATGTGAATTAG` the fluorescence intensity was 752 a.u.
`GAAAAATAAAATGCTGATGTTACTATTAGATTATAG` gave a fluorescence intensity of 527 a.u.
`GAACGTCATATTCTATCCGTGATTTTTTTGGTTTAG` has a fluorescence intensity of 621 a.u.
`CTATAGTTCGCGCATCACGAGGTACGTGTTTAATTC` gave a fluorescence intensity of 2140 a.u.
The fluorescence intensity of `GAAGGCCACGGAACGCACGTGGCGGGACTCGTATAG` is reported as 3280 a.u.

Set 2
Target: ABI1, truncated, D143A, DHFR fusion (Arabidopsis thaliana)
Method: DHFR PCA, deep sequencing
Matrix: yeast
Setting: methotrexate growth selection, single substitutions
Together with: (+)-ABA 0.0091 µM
Baseline: wild-type fitted maximum
Reading: higher = stronger binding
Starting sequence: PYL1, truncated, DHFR fusion (Arabidopsis thaliana); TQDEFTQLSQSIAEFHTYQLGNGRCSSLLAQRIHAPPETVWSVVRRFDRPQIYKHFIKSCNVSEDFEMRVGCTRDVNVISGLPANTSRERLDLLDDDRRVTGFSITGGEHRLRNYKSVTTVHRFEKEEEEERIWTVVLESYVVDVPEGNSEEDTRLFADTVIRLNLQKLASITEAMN; partner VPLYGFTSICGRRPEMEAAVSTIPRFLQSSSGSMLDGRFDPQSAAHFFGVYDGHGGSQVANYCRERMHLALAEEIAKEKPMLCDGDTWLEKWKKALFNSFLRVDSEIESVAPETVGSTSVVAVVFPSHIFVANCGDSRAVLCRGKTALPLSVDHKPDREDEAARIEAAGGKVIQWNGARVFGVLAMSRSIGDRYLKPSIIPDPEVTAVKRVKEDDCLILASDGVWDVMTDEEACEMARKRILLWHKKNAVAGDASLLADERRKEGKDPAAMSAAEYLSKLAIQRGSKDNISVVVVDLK
Under “relative binding score”, `E64Q` is recorded as 28.9%.
Under “relative binding score”, `M176P` is recorded as 2.91%.
`V62N` — result for “relative binding score”: -2.77%.
Under “relative binding score”, `T119L` is recorded as -3.58%.
`P146M`: “relative binding score” 29.5%.
`S63Q`: “relative binding score” 22.2%.
`L8W`: “relative binding score” 9.21%.
`S140N` — result for “relative binding score”: -0.454%.
`D92R`: “relative binding score” 2.18%.
`I52V` — result for “relative binding score”: 43.3%.
`N85S` — result for “relative binding score”: 56.8%.
Under “relative binding score”, `R155A` is recorded as 0.256%.
`V70A`: “relative binding score” -1.57%.
For `N149W`, “relative binding score” read 9.92%.
Under “relative binding score”, `D48S` is recorded as 0.388%.
Under “relative binding score”, `V44Y` is recorded as -8.5%.

Set 3
Target: Prothrombin, mature alpha-thrombin (F2, Homo sapiens, UniProt P00734)
Method: aptamer microarray, sandwich
Form: DNA with 2'F-ANA
Matrix: in vitro
Concentration: 200 nM
Setting: whole 15-mer aptamer, many near background
Together with: Cy3 exosite-II aptamer, 400 nM
Reading: higher = stronger binding
Strand: GGTTGGTGTGGTTGG
`2'F-ANA at 1 3 5 7 10 11 14 15` — result for “mean fluorescence intensity”: 45.4 a.u.
`2'F-ANA at 3 6 8 9 10 12 13 14`: “mean fluorescence intensity” 329 a.u.
`2'F-ANA at 1 3 4 6 11 12 13 15`: “mean fluorescence intensity” 241 a.u.
`2'F-ANA at 2 3 6 9 10 12 14 15` — result for “mean fluorescence intensity”: 279 a.u.
`2'F-ANA at 2 4 7 14 15` — result for “mean fluorescence intensity”: 134 a.u.
`2'F-ANA at 3 4 5 7 11 12 14` — result for “mean fluorescence intensity”: 55.7 a.u.
For `2'F-ANA at 2 4 6 7 8 10 12 13`, “mean fluorescence intensity” read 88.1 a.u.
`2'F-ANA at 1 2 4 6 8 10 11 12 13 15` — result for “mean fluorescence intensity”: 60.7 a.u.
`2'F-ANA at 1 3 4 5 7 9 10 11 15`: “mean fluorescence intensity” 50.5 a.u.
`2'F-ANA at 1 3 5 6 8 9 11 13`: “mean fluorescence intensity” 58.4 a.u.
`2'F-ANA at 2 3 5 8 9 10 11 12 14` — result for “mean fluorescence intensity”: 50.5 a.u.
`2'F-ANA at 1 2 4 5 8 11 13 14` — result for “mean fluorescence intensity”: 73.2 a.u.
For `2'F-ANA at 1 3 4 6 7 11 13 14`, “mean fluorescence intensity” read 62.6 a.u.
`2'F-ANA at 4 5 6 9 12 13 15`: “mean fluorescence intensity” 101 a.u.
For `2'F-ANA at 3 6 7 9 11 12 13`, “mean fluorescence intensity” read 900 a.u.
Under “mean fluorescence intensity”, `2'F-ANA at 1 4 6 7 10 15` is recorded as 45.9 a.u.
`2'F-ANA at 2 4 6 7 8 10 12 14`: “mean fluorescence intensity” 64.7 a.u.
`2'F-ANA at 3 4 7 9 10 11 14`: “mean fluorescence intensity” 239 a.u.
For `2'F-ANA at 1 3 4 5 8 11 12 13 14 15`, “mean fluorescence intensity” read 58.9 a.u.
Under “mean fluorescence intensity”, `2'F-ANA at 2 3 4 6 8 10 11 12 15` is recorded as 289 a.u.
`2'F-ANA at 2 6 9 10 11 12 13` — result for “mean fluorescence intensity”: 130 a.u.
`2'F-ANA at 3 5 9 13`: “mean fluorescence intensity” 177 a.u.

Set 4
Target: CCND2, cyclin fold, Cln2 fusion (human)
Method: yeast growth competition, sequencing
Matrix: yeast
Setting: weak parent motif
Baseline: not given
Reading: higher = stronger binding
Starting sequence: RB1 docking peptide (human); PKPLKKLRFDIEG
`L4F`: “normalised enrichment score” 0.517.
`G13S`: “normalised enrichment score” -0.00934.
For `P3A`, “normalised enrichment score” read 0.325.
For `E12P`, “normalised enrichment score” read 0.309.
For `K6Q`, “normalised enrichment score” read 0.28.
`P1F`: “normalised enrichment score” 0.531.
`I11A`: “normalised enrichment score” 0.709.
`G13V`: “normalised enrichment score” -0.0864.
`P3M`: “normalised enrichment score” -0.0948.
Under “normalised enrichment score”, `K2T` is recorded as 0.104.
Under “normalised enrichment score”, `G13T` is recorded as -0.401.
For `I11D`, “normalised enrichment score” read 0.0463.
`R8P` — result for “normalised enrichment score”: 0.289.
`P1T` — result for “normalised enrichment score”: 0.455.
`K6M`: “normalised enrichment score” 0.337.
`G13K`: “normalised enrichment score” 0.921.
`P3R` — result for “normalised enrichment score”: 0.322.
`F9Q` — result for “normalised enrichment score”: 0.257.
Under “normalised enrichment score”, `E12A` is recorded as -0.0937.
`E12C` — result for “normalised enrichment score”: 0.277.
`P1L` — result for “normalised enrichment score”: -0.547.
Under “normalised enrichment score”, `R8N` is recorded as 0.216.
For `L7V`, “normalised enrichment score” read 0.529.
`F9R` — result for “normalised enrichment score”: -0.0245.
Under “normalised enrichment score”, `I11N` is recorded as 0.588.

Set 5
Target: Ras GTPase-activating protein-binding protein 1, full length (G3BP1, Homo sapiens, UniProt Q13283)
Sequence of UniProt Q13283 (whole entry, looked up): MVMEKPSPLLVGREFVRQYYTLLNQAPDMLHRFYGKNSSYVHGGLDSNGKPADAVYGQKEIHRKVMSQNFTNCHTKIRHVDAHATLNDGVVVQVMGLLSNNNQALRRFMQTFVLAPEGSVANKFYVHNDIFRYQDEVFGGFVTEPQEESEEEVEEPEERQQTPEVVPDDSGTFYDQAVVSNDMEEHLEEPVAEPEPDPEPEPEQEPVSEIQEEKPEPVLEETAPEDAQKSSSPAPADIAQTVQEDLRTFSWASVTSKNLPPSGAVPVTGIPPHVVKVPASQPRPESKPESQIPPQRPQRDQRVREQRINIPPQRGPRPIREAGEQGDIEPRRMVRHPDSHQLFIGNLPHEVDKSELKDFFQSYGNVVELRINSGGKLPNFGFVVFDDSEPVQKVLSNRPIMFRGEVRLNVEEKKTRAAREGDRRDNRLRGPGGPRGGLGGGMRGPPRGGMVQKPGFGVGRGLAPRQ
Method: RNA Bind-n-Seq
Form: RNA
Matrix: in vitro
Concentration: 200 nM
Setting: whole 134-nt RNA, ends assumed
Together with: 150 mM KCl
Baseline: input library
Reading: higher = stronger binding
All sequences stand within: GGGAGUUCUACAGUCCGACGAUC … UGGAAUUCUCGGGUGUCAAGG
The log2 enrichment of `ACCAUGCAGGUGGGCAUCUUUGGGAAGUGGGGCAAGGGGGGGAUAGGGAGGGGGGUAACACUUUGGGAAAAGGUGGUCCCAGGUCGUUUC` is reported as 1.52.
The log2 enrichment of `AAGUCCUGUGCUACACAUCGUAUGUACCGAAUCGGAAAAAAAGGAAAAAGGAAAGGAAAGUAUUAUGUUACGCCGUUCGGAUCUGCACUU` is reported as -1.37.
`CAAGUCCUGUGCUACACAUCGUAUGUACCGAAUCGGGUUUGGGUUUUUGGGAGGGAAAGUAUUAUGUUACGCCGUUCGGAUCUGCACUUC` has a log2 enrichment of 0.668.
The log2 enrichment of `ACGAUGCAGGUGGGCAUCUUUGGGAAGUGGGGCAAGGGGGGGAUAGGGAGGGGGGUAACACUUUGGGAACAGGUGGUCCCAGGUCGUUUC` is reported as 1.38.
For `UGAUGGGACAACACCCGAAAGGAUAGCACAAAUAACAGGACCUCCAGACCGAUGUCAACAUGCUGCAGAAAUUAUUACAGACCUUCUUCG`, the log2 enrichment was 0.471.
With `UCCUGUGCUACACAUCGUAUGUACCGAAUCGGGAAAAAAAGGAAAAAAAGGAAAAAAAGGAAAGUAUUAUGUUACGCCGUUCGGAUCUGC` the log2 enrichment was -0.337.
With `CCUGUGCUACACAUCGUAUGUACCGAAUCGGGGAAAAAAGGGAAAAAAGGGGAAAAAAGGAAAGUAUUAUGUUACGCCGUUCGGAUCUGC` the log2 enrichment was -0.34.
With `UCAAGUCCUGUGCUACACAUCGUAUGUACCGAAUCGGAGGUUUUUUUGGAAAGGAAAGUAUUAUGUUACGCCGUUCGGAUCUGCACUUCC` the log2 enrichment was -1.09.
The log2 enrichment of `UCCUCAAGUCCUGUGCUACACAUCGUAUGUACCGAAUCGGAAAGGUGGUGGAAAGUAUUAUGUUACGCCGUUCGGAUCUGCACUUCCAGC` is reported as -0.612.
The log2 enrichment of `UCCUCAAGUCCUGUGCUACACAUCGUAUGUACCGAAUCGGGGAGGAGGAGGAAAGUAUUAUGUUACGCCGUUCGGAUCUGCACUUCCAGC` is reported as -0.355.
With `CACAGACAACACGCACCCACACAGACACAGAUGGAAGGGGUUGGGAUGGGGACAGGGUGCACAGCAGGGCGGGGUAGGACCCCAGCCCCU` the log2 enrichment was 1.89.
`CACAGACAACACGCACCCACACAGACACAGAGGGAAGGGGUUGGGAUGGGGACAGGGUGCACAGCAGGGCGGGAUAGGACCCCAGCCCCU` has a log2 enrichment of 1.97.
The log2 enrichment of `CCUGUGCUACACAUCGUAUGUACCGAAUCGGUUUUUUUGGUUUUUUUGGGGUUUUUUUGGGAAAGUAUUAUGUUACGCCGUUCGGAUCUG` is reported as -1.05.
`UCCUGCCAACCUCUCUUAAUGCUCUGAGAGCCUCUGGUGUUGACAUAGAAGAGGAAACGGAGAAGAACCUGGAAAAGGUACAGACUAUCA` has a log2 enrichment of -1.52.

For quick reference, copied from above (set 3):
`2'F-ANA at 2 3 5 8 9 10 11 12 14` — result for “mean fluorescence intensity”: 50.5 a.u.
For `2'F-ANA at 1 3 4 5 8 11 12 13 14 15`, “mean fluorescence intensity” read 58.9 a.u.
`2'F-ANA at 2 4 7 14 15` — result for “mean fluorescence intensity”: 134 a.u.
Under “mean fluorescence intensity”, `2'F-ANA at 2 3 4 6 8 10 11 12 15` is recorded as 289 a.u.
`2'F-ANA at 2 6 9 10 11 12 13` — result for “mean fluorescence intensity”: 130 a.u.
`2'F-ANA at 3 5 9 13`: “mean fluorescence intensity” 177 a.u.
